Published values gathered from unrelated publications.
Parts stem from different laboratories: compare values within a part only.

Set 1 — technique: universal PBM; molecule type: double-stranded DNA, one strand shown; matrix: in vitro; concentration: 600 nM; reading: higher = stronger binding
Target: Sal-like protein 4, full length isoform A (SALL4, Homo sapiens, UniProt Q9UJQ4, residues 1-1053)
Sequence of UniProt Q9UJQ4 (whole entry, looked up): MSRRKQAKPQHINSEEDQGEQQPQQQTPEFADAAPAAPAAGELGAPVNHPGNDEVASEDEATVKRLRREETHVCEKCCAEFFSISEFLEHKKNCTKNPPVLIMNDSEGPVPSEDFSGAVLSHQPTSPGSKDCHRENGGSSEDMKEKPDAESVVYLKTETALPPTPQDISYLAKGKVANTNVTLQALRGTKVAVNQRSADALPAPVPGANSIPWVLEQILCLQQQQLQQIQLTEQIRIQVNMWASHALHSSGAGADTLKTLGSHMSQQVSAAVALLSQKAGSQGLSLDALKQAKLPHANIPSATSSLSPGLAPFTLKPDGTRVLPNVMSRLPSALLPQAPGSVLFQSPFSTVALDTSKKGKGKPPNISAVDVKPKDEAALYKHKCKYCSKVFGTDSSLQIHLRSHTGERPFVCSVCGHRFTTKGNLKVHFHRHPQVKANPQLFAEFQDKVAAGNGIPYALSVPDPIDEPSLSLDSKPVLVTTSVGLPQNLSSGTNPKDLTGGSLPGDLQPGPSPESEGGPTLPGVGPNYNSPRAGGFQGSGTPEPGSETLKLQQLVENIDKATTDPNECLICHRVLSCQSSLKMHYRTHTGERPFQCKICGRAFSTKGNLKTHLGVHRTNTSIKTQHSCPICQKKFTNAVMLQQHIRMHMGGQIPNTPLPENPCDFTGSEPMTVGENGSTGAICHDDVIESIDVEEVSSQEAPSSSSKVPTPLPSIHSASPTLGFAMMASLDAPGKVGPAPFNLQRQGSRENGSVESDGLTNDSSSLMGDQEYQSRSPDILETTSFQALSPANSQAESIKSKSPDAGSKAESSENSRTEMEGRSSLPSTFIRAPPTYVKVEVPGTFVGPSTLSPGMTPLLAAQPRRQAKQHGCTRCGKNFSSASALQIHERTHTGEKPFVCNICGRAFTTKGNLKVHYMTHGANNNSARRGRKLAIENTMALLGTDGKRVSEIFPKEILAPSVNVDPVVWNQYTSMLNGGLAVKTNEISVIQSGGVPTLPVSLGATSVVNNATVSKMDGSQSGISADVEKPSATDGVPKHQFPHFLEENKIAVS
Setting: 8-mer, flanks averaged, mean of replicates
Sequence	E-score
GAAACAGC	-0.098
CCATCGCC	-0.28
CAGGTAAA	0.218
AAGACTAG	-0.0447

Set 2 — technique: protein-binding microarray; molecule type: double-stranded DNA, one strand shown; matrix: in vitro; concentration: 250 nM; setting: 60-bp whole probe; together with: salmon DNA 0.4 mg/ml; relative to: random background probes; reading: higher = stronger binding
Target: Interferon regulatory factor 5, full length, phosphomimetic (IRF5, Homo sapiens, UniProt Q13568-2, residues 1-514, K96S/S451D/S453D/S456D/S462D)
Sequence	log fluorescence
GCCTAGCACTCAGCTCTGGCACCTCTAACTGTGCTAGTCTTGATTCGCTTGACGCTGCTG	-0.365 z-score
GCCTAGCACTTAGAACTGGACTATCGGTTAGTGCTAGTCTTGATTCGCTTGACGCTGCTG	6.43 z-score
GCCTAGCACGACGATATCGGGTGTCGAGACGTGCTAGTCTTGATTCGCTTGACGCTGCTG	1.46 z-score
GCCTAGCACGACGGTATCGGACTGCGGACGTGCTAGGTCTTGATTCGCTTGACGCTGCTG	1.1 z-score

Single results of other studies
UNK zinc fingers 1-6, GST-SBP tag: RING finger protein unkempt homolog, zinc fingers 1-6, GST-SBP tag (UNK, Homo sapiens, UniProt Q9C0B0, residues 30-357)
Sequence of UniProt Q9C0B0 (30-357, looked up): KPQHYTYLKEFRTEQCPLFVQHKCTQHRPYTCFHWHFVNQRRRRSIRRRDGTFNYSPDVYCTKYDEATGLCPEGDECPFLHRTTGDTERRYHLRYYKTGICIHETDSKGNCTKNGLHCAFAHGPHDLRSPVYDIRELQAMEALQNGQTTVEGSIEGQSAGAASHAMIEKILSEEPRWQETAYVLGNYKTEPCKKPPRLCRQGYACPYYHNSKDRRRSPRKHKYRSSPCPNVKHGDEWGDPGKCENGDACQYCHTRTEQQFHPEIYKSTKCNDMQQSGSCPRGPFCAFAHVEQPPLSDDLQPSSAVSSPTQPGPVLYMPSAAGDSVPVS
Substance	target	assay	test system	setting	how to read	endpoint	result
GGGAGUUCUACAGUCCGACGAUCGAUAUCUGUCGUAGAAACCUCGACAUUGAGCGCCCAACCUACACUAACCUAAACAGGUUGAUAGGUCAAAUUGUGUCUUCCAUCACUGCUUCCCUCAGAUUUGAUGGGGCCCUGAAUGUUCAACAGAGGAUUGAGCAUCA	UNK zinc fingers 1-6, GST-SBP tag	RNA Bind-n-Seq	RNA, in vitro	not given, RNA with constant flanks, human and mouse sites, ends assumed	relative to: input RNA pool, higher = stronger binding	bound/input enrichment	0.213 ratio
PhoQ, residues 284 288 289 292 302 303 SLCLSL	PhoP, residues 12 14 15 18 19 SPWRL (Escherichia coli, UniProt P23836)	Sort-seq, refers to: YFP reporter	E. coli	PhoQ-PhoP variant library, together with: 10 µM Mg2+	relative to: high Mg2+ state, higher = stronger signaling	fold induction	3.38
GGGAGUUCUACAGUCCGACGAUCCUGUAAUAGUGCUUUUCUAUGGAAGAGAUGAAUUGGGAAAACCACCACCUUUUUAUAGAUCACUGUGUUUCUAAAUUAUGACCAAAAAUAUUUUGCUAUUUCUUUAUAUAUGGAAUCUUUCAACAGAGGAUUGAGCAUCA	RING finger protein unkempt homolog, zinc fingers 1-6, SBP tag (UNK, Homo sapiens, UniProt Q9C0B0, residues 30-357)	RNA Bind-n-Seq	RNA, in vitro	100 nM, RNA with constant flanks, vertebrate orthologous sites, ends assumed	relative to: input RNA pool, higher = stronger binding	bound/input enrichment	0.798 ratio
GGGAGUUCUACAGUCCGACGAUCCUGUCAAAACGACGGAGUCAGUUAAAACAAGCAGUUGCAAAAAUGGUUCAGCAGUGCUGUACUUACGUGGAGGAGAUCACAGACCUGCCAGUCAAGCUGCGAUUGAUUGAUACUCUGCGGCAACAGAGGAUUGAGCAUCA	UNK zinc fingers 1-6, GST-SBP tag	RNA Bind-n-Seq	RNA, in vitro	not given, RNA with constant flanks, human and mouse sites, ends assumed	relative to: input RNA pool, higher = stronger binding	bound/input enrichment	0.117 ratio

For quick reference, copied from above (set 1):
Sequence	E-score
CAGGTAAA	0.218
